Assay results collected from several papers.
Parts stem from different laboratories: compare values within a part only. Substitutions count along the parent as printed.

Sample 1
Target: Histone acetyltransferase KAT6A, winged helix 2, GST fusion (KAT6A, Homo sapiens, UniProt Q92794, residues 85-181)
Method: protein binding microarray
Form: double-stranded DNA, one strand shown
Matrix: in vitro
Concentration: not given
Notes: 8-mer, flanks averaged, mean of 2 arrays, mostly near background
Relative to: not given
Reading: higher = stronger binding
Construct (chain): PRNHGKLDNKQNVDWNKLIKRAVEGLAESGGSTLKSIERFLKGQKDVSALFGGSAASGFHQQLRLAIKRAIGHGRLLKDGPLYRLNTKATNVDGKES
| Strand | E-score |
| --- | --- |
| AGCGCAGG | 0.0454 |
| TATCGATA | -0.0166 |
| ACAAGCAA | 0.0559 |
| CACCAAGC | -0.142 |
| CCCCGACA | 0.14 |
| TTCATCAA | 0.0513 |
| CACATTAA | -0.147 |

Sample 2
Target: CCNB2, cyclin fold, Cln2 fusion (human)
Method: yeast growth competition, sequencing
Matrix: yeast
Notes: weak parent motif
Relative to: not given
Reading: higher = stronger binding
Parent: SLBP docking peptide (human); ARYKRKLLINDFG
| Variant | normalised enrichment score |
| --- | --- |
| K6Q | 1.2 |
| R2S | 0.144 |
| L7T | 0.347 |
| Y3Q | 0.614 |
| Y3A | 0.983 |

Sample 3
Target: Ras GTPase-activating protein-binding protein 1, full length (G3BP1, Homo sapiens, UniProt Q13283)
Sequence of UniProt Q13283 (whole entry, looked up): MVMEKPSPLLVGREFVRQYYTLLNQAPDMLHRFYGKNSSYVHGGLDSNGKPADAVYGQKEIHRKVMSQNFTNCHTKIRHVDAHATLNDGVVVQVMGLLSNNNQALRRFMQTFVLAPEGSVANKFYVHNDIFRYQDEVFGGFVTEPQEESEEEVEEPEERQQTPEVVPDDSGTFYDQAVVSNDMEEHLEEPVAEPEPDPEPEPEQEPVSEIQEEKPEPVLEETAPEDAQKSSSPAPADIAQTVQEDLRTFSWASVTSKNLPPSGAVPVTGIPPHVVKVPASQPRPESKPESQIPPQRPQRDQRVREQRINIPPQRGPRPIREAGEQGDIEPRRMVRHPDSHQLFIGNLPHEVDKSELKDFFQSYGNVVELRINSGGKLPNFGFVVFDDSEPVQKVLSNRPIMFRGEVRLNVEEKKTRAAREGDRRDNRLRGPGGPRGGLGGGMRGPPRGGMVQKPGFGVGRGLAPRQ
Method: RNA Bind-n-Seq
Form: RNA
Matrix: in vitro
Concentration: 200 nM
Notes: whole 134-nt RNA, ends assumed
Added: 150 mM LiCl
Relative to: input library
Reading: higher = stronger binding
Each molecule: 7-deaza-guanosine replaces G
All sequences stand within: GGGAGUUCUACAGUCCGACGAUC … UGGAAUUCUCGGGUGUCAAGG
| Strand | log2 enrichment |
| --- | --- |
| GCAGGAAGCAAAAACAAAUGGAAAUGCUUCGGAUAGUGGCAGGGGUGGGGGUUGCUAAGGAAAGGGUGGGAUGGGAGUGGGUAAAGAGUU | 0.176 |
| CAAGUCCUGUGCUACACAUCGUAUGUACCGAAUCGGAAAGGGAAAGGGAAAGGGGAAAGUAUUAUGUUACGCCGUUCGGAUCUGCACUUC | -0.153 |
| UUGUUUAGCAAUCAAGGAGACCGCGAAGGCGUACAUUCCCGGGUGUUGCUUCCAGGAGAAACCCUGAACGGAGAGCUCGUCCUCUUACCA | 0.208 |
| UCAAGUCCUGUGCUACACAUCGUAUGUACCGAAUCGGGAAAGGGUUUGGGAGGGAAAGUAUUAUGUUACGCCGUUCGGAUCUGCACUUCC | -0.262 |
| CUCAAGUCCUGUGCUACACAUCGUAUGUACCGAAUCGGUUUUUGGUUUGGUGGAAAGUAUUAUGUUACGCCGUUCGGAUCUGCACUUCCA | 0.238 |
| UAACUUUAGAGGAGGAUCUGAUGGAUAUGGGAGUGGACGUGGAUUUGGGGAUGGCUAUAAUGGGUAUGGAGGAGGACCUGGAGGUGGCAA | -0.0906 |
| UCAAGUCCUGUGCUACACAUCGUAUGUACCGAAUCGGCCCGGGGCCCGGCCCGGGAAAGUAUUAUGUUACGCCGUUCGGAUCUGCACUUC | -0.00591 |
| CCUUUUUGAGAAGGCCGGACCCAUUUGGGAUCUACGUCUUAUGAUGGAUCCACUGUCCGGUCAGAAUAGAGGGUAUGCAUUUAUCACCUU | 0.294 |

Further values, each from its own experiment
| Molecule | target | test | test system | conditions | scale | measurement | value |
| --- | --- | --- | --- | --- | --- | --- | --- |
| PhoQ, residues 284 288 289 292 302 303 ASSHFY | PhoP, residues 12 14 15 18 19 QYCSL (Escherichia coli, UniProt P23836) | Sort-seq, measured: YFP reporter | E. coli | PhoQ-PhoP variant library, added: 10 µM Mg2+ | relative to: high Mg2+ state, higher = stronger signaling | fold induction | 7.08 |

Repeated from above (sample 1):
| Strand | E-score |
| --- | --- |
| TTCATCAA | 0.0513 |
| TATCGATA | -0.0166 |
| AGCGCAGG | 0.0454 |
